Results pooled from the literature.
Compare with care: the assays were run in different laboratories.
Target: Ephrin type-B receptor 6 (EPHB6, Homo sapiens, UniProt O15197)

SMILES | read-out | mode | technique | tested at | reference | quantity | result
CNC(=O)C1CCN(c2cc(C)c(F)cc2NC(=O)c2ccc(-c3cc(O)ccc3C)c(C)c2)CC1 | binding | – | competition with immobilised ligand | 1 µM | – | remaining binding | 79%
COc1cc(Nc2nc(C)cc(-c3cnn4nc(OC)ccc34)n2)cc(C(F)(F)F)c1 | – | inhibitor | – | 1 µM | control | remaining activity | 78%
CCN1CCN(Cc2ccc(C(=O)Nc3ccc(C)c(NCc4cnc5[nH]ccc5c4OC)c3)cc2C(F)(F)F)CC1 | binding | – | competition with immobilised ligand | 1 µM | – | remaining binding | 12%
CC(C)=CC1OC(C)(C)C2C=C3C(=O)C(Cl)=CC(O)C3C3C(O)C4OC4C(=O)C132 (stereo not drawn) | cell-free assay | – | competition with immobilised ligand | 10 µM | – | remaining binding | 92%
COc1cc(Nc2nccc(-c3cnn4nc(OC)ccc34)n2)cc(C(F)(F)F)c1 | binding | – | competition with immobilised ligand | 1 µM | – | remaining binding | 73%
C=CC(=O)N1CCCC(n2c(=O)c3ncccc3n(Cc3ccc(Oc4ccccc4)cc3)c2=O)C1 (stereo not drawn) | cell-free assay | – | competition with immobilised ligand | 1 µM | – | remaining binding | 78%
COc1c(Cl)cccc1Nc1c(-c2ccncc2C#C[C@@]2(C)CCCN2C(=O)/C=C/CN(C)C)[nH]c2c1C(=O)NCC2 | cell-free assay | – | competition with immobilised ligand | 3 µM | – | remaining binding | 50%
C=CC(=O)N1CCc2ccc(-n3c(=O)ccc4cnc5ccc(-c6cnn(C)c6)cc5c43)cc21 | – | – | KINOMEscan | 1 µM | DMSO control | remaining binding | 92%
Cc1cnc2nc1Nc1cccc(c1)COC/C=C/COCc1cc(ccc1OCCN1CCOCC1)N2 | binding | – | – | 0.1 µM | – | remaining binding | 78%
Nc1ncc2c(n1)-c1c([nH]c3ccc(C4=CCOCC4)cc13)CCC2 | binding | – | competition with immobilised ligand | 1 µM | – | remaining binding | 100%
CNC1C[S+]2CC[S+]3CC[S+](C1)[Ru-4]321([N]=C=S)[n]2c3ccc(OC)cc3c3c4c(c5cc(F)c[n+]1c5c32)C(=O)NC4=O (stereo not drawn) | – | – | KinomeScan | 0.1 µM | untreated | remaining binding | 93%
Cc1ccc(-c2c(/C=C(\C#N)C(=O)NC(C)C)n(CCCO)c3ncnc(N)c23)cc1 | cell-free assay | – | competition with immobilised ligand | 1 µM | – | remaining binding | 100%
